Assay results pooled from the literature.
Every numbered part comes from another study and shows a few of its results, in no order.
UniProt Q00534, sequence (whole entry, looked up): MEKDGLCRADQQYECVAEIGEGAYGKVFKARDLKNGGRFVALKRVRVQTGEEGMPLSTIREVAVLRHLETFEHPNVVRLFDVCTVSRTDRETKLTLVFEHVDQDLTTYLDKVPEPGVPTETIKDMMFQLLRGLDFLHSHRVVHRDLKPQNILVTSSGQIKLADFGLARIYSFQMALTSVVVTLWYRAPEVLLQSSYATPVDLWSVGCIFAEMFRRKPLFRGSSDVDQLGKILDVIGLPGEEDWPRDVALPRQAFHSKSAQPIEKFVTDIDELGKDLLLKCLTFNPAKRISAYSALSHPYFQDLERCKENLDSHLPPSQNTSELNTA
UniProt O43683, sequence (whole entry, looked up): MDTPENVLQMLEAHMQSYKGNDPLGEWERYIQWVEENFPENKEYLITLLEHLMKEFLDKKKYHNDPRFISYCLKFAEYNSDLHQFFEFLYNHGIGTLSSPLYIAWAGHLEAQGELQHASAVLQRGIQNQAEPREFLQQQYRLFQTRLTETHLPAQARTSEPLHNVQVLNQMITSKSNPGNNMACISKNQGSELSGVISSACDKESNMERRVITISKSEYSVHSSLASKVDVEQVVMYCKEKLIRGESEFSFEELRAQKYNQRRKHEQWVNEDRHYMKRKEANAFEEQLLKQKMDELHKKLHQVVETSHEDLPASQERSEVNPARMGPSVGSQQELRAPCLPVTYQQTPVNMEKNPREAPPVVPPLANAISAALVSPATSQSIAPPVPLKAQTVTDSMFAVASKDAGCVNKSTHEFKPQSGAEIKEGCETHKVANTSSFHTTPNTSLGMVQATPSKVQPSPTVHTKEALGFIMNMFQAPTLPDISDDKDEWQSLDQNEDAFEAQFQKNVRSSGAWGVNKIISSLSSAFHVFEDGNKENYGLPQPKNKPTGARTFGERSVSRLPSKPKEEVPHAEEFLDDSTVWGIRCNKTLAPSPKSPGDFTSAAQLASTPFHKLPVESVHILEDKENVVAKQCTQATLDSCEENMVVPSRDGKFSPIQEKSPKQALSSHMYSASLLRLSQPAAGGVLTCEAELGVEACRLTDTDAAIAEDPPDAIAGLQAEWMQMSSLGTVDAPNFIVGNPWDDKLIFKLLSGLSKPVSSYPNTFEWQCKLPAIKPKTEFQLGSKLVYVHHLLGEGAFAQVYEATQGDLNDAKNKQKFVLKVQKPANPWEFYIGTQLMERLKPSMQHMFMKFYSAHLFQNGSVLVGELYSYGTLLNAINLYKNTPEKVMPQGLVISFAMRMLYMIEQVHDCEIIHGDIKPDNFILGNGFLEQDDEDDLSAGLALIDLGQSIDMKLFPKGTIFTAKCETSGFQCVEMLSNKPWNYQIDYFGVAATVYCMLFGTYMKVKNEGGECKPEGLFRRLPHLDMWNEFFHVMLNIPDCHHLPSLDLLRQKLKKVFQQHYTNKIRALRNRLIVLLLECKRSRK
UniProt P16234, sequence (whole entry, looked up): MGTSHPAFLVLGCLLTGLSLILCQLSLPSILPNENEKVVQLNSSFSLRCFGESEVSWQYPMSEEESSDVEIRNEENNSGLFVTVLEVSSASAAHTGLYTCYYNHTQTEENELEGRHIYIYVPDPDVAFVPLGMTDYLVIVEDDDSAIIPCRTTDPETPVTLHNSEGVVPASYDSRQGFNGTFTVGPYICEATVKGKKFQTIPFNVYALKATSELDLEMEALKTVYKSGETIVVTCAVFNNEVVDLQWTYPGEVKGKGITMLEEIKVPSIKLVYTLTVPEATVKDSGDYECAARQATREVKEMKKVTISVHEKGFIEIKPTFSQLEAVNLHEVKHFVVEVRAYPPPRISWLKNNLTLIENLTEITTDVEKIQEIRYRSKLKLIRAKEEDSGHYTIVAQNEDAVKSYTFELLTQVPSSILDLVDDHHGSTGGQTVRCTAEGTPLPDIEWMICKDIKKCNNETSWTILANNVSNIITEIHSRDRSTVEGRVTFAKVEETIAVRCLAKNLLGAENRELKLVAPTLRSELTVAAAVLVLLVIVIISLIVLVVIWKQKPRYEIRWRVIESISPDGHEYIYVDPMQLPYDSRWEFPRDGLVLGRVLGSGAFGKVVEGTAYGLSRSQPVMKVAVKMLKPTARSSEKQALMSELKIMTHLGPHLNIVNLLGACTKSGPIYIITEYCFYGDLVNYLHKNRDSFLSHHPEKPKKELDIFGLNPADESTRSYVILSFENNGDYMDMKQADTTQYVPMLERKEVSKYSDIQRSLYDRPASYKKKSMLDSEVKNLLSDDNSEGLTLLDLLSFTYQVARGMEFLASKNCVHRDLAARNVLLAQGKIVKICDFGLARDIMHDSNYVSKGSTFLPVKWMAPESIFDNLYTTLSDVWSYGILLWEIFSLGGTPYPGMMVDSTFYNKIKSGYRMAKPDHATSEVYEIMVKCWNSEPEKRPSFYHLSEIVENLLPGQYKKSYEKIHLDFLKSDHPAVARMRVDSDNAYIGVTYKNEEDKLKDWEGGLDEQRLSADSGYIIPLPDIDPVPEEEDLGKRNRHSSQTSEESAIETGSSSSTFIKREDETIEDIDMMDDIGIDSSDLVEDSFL
UniProt Q15831, sequence (whole entry, looked up): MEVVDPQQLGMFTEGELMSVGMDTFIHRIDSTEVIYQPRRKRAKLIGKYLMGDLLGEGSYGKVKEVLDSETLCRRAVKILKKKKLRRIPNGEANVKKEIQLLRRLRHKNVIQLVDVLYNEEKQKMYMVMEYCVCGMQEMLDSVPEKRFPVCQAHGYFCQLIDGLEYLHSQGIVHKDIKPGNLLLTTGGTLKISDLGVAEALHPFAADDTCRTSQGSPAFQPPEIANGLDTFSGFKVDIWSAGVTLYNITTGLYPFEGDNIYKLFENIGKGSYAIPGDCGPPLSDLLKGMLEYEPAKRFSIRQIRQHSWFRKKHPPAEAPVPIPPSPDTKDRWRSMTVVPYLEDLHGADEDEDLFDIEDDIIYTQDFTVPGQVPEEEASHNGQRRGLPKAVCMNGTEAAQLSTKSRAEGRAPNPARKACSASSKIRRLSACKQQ
UniProt Q16816, sequence (whole entry, looked up): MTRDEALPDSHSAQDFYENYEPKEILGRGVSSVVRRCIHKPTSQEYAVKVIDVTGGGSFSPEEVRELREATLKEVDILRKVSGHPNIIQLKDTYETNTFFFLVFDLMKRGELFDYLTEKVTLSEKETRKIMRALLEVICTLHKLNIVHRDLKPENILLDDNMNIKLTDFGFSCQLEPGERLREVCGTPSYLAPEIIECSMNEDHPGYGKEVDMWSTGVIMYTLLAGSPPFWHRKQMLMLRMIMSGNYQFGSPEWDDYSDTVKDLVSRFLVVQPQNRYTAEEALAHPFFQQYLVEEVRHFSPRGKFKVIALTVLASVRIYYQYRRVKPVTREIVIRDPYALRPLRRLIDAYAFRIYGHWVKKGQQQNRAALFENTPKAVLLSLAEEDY
UniProt Q13554, sequence (whole entry, looked up): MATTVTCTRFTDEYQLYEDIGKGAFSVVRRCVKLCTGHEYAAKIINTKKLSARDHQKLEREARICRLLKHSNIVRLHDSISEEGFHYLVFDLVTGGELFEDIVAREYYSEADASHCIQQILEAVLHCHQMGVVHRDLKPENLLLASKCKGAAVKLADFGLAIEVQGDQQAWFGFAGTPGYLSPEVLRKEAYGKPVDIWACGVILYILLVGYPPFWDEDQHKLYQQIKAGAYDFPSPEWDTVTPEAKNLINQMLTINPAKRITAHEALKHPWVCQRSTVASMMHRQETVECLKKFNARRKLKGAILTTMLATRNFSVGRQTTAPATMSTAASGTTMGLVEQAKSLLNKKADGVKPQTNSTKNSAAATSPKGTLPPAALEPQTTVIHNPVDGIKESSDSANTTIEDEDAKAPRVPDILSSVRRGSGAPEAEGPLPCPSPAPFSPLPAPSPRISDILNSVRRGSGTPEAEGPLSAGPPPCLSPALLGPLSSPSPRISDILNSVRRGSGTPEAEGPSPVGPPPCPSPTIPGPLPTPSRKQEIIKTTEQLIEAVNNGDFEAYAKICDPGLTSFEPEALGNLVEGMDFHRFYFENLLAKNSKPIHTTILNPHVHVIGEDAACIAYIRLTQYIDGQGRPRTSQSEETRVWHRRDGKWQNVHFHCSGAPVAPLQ
UniProt P06493, sequence (whole entry, looked up): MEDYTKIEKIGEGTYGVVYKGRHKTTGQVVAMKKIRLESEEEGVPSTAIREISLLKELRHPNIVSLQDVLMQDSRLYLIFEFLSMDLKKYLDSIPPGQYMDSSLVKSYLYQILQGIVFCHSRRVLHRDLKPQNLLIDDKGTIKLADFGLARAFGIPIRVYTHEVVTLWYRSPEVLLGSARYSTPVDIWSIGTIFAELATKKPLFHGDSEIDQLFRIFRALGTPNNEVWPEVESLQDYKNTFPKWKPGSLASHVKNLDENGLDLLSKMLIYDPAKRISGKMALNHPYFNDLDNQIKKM

Block 1 — method: competition with immobilised ligand; tested at: 1 µM
SMILES: O=C(NCc1ncc(C(F)(F)F)cc1Cl)c1ccc2c(c1)C1(CCS(=O)(=O)CC1)[C@@H](C1CC1)N2S(=O)(=O)c1ccc(F)cc1
target	read-out	remaining binding
FLT3 (Homo sapiens, UniProt P36888, N841I)	cell-free assay	78%
KIT (Homo sapiens, UniProt P10721)	cell-free assay	82%
PDGFRA (Homo sapiens, UniProt P16234)	cell-free assay	87%
Ribosomal protein S6 kinase alpha-2, C-terminal kinase domain (RPS6KA2, Homo sapiens, UniProt Q15349)	cell-free assay	100%
Tyrosine-protein kinase ABL1, phosphorylated (ABL1, Homo sapiens, UniProt P00519, E255K)	binding	100%
NEK4 (Homo sapiens, UniProt P51957)	cell-free assay	99%
Tyrosine-protein kinase ABL1, phosphorylated (ABL1, Homo sapiens, UniProt P00519, Q252H)	cell-free assay	87%
BUB1 (Homo sapiens, UniProt O43683)	cell-free assay	1.9%
STK11 (Homo sapiens, UniProt Q15831)	cell-free assay	100%
DYRK1B (Homo sapiens, UniProt Q9Y463)	cell-free assay	100%

Block 2 — cell line: A-375; tested at: 100 µM; time: 18 h
SMILES	viability [%]
Cc1cn(-c2cc(NC(=O)c3ccc(C)c(Nc4nccc(-c5cnccn5)n4)c3)cc(C(F)(F)F)c2)cn1	23.3
CN(C)[C@@H]1C(O)=C(C(N)=O)C(=O)[C@@]2(O)C(O)=C3C(=O)c4c(O)ccc(Cl)c4[C@@](C)(O)[C@H]3C[C@@H]12	103
CCCN[C@H]1CCc2nc(N)sc2C1	106
NC(=O)CC[C@H](N)C(=O)O	100
OC[C@H]1O[C@H](OC[C@H]2O[C@H](OC[C@H]3O[C@H](O[C@]4(CO)O[C@H](CO)[C@@H](O)[C@@H]4O)[C@H](O)[C@@H](O)[C@@H]3O)[C@H](O)[C@@H](O)[C@H]2O)[C@H](O)[C@@H](O)[C@H]1O	76.1
O=P(O)(O)C(O)(Cn1ccnc1)P(=O)(O)O	99.7
CN(C)c1ccc(C(=C2C=CC(=[N+](C)C)C=C2)c2ccc(N(C)C)cc2)cc1	34
CO[C@@]1(NC(=O)CSCC#N)C(=O)N2C(C(=O)O)=C(CSc3nnnn3C)CS[C@@H]21	96.5
O=C(O)[C@@H]1CSCN1	81.1
Cc1cc(C#N)cc(C)c1Oc1nc(Nc2ccc(C#N)cc2)nc(N)c1Br	34.7

Block 3 — organism: Sarcocystis neurona; read-out: parasite growth; tested at: 10 µM; time: 96 h; reference: untreated
SMILES	log2 fold change
C[C@H]1C[C@H]2[C@@H]3CCC4=CC(=O)C=C[C@]4(C)[C@@]3(F)[C@@H](O)C[C@]2(C)[C@@]1(O)C(=O)CO	0.45
COc1cc(NC(C)CCCN)c2ncccc2c1 (stereo not drawn)	-6.28
Cc1cn([C@H]2C[C@H](N=[N+]=[N-])[C@@H](CO)O2)c(=O)[nH]c1=O	0.27
CC1Cc2ccccc2N1NC(=O)c1ccc(Cl)c(S(N)(=O)=O)c1 (stereo not drawn)	0.43
CO[C@@H]1[C@@H](O[C@@H]2O[C@H](C)[C@@H](O[C@H]3C[C@@](C)(O)[C@@H](OC(=O)CC(C)C)[C@H](C)O3)[C@H](N(C)C)[C@H]2O)[C@@H](CC=O)C[C@@H](C)[C@@H](O)/C=C/C=C/C[C@@H](C)OC(=O)C[C@H]1OC(C)=O	-0.73
CC(C)(C)NC(=O)[C@H]1CC[C@H]2[C@@H]3CC[C@H]4NC(=O)C=C[C@]4(C)[C@H]3CC[C@]12C	-0.55
CCCCC[C@H](O)/C=C/[C@H]1[C@H](O)CC(=O)[C@@H]1CCCCCCC(=O)O	0.38

Block 4 — read-out: enzyme activity; mode: inhibitor; tested at: 0.5 µM; reference: control
Compound: O=C1Cc2c([nH]c3ccc([N+](=O)[O-])cc23)-c2ccccc2N1
target	remaining activity [%]
HIPK4 (Homo sapiens, UniProt Q8NE63)	103
STK16 (Homo sapiens, UniProt O75716)	93.1
Cyclin-dependent kinase 1, with cyclin B (CDK1, Homo sapiens, UniProt P06493)	23.2
BLK (Homo sapiens, UniProt P51451)	94.2
PHKG1 (Homo sapiens, UniProt Q16816)	9.22
Cyclin-dependent kinase 6, with cyclin D3 (CDK6, Homo sapiens, UniProt Q00534)	43.4
DYRK3 (Homo sapiens, UniProt O43781)	99.3
CAMK2B (Homo sapiens, UniProt Q13554)	98.1
WNK3 (Homo sapiens, UniProt Q9BYP7)	99.7
